Published values pooled from the literature.
Numbered parts are unrelated; each lists some results of a single study.

Sample 1 — method: competition protein-binding microarray; molecule type: double-stranded DNA, one strand shown; matrix: in vitro; tested at: 2 µM; added: Pho4 competitor, 0.05 µM; reading: higher = stronger binding; measurement: fluorescence intensity; constant ends, left off below: … GTCTTGATTCGCTTGACGCTGCTG
Target: Centromere-binding protein 1, full length, His-tagged (CBF1, Saccharomyces cerevisiae, UniProt P17106, residues 1-351)
UniProt P17106, sequence (whole entry, looked up): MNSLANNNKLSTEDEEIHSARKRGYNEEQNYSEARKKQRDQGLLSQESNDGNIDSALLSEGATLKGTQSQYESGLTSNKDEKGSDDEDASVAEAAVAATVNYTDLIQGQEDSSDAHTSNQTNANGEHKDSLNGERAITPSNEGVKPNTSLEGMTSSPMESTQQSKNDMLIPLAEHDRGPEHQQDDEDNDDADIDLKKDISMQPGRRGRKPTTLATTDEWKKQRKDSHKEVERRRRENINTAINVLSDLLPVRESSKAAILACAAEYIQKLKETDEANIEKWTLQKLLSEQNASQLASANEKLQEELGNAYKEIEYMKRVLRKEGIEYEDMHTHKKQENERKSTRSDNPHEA
Notes: whole 60-bp probe, lowest competitor level
AGTGCTTTCCTTTGTCACCGGCGTAACGGATTCGCT: 62 a.u.
AAATTACTAAGTTGGTCTGTGGGTGACGCCGTATGA: 70.5 a.u.
TTGGTACTTGTTCAACACGTTGCTTACGATCTTGGT: 106 a.u.
TTTCTCGAATTTTTGCACGTGAAAACGGTGAACCTC: 1370 a.u.
TGCGCAACAACTTGTCACGCTACTTTATGTCTAGAA: 234 a.u.
CCAGATCCGGATCCAAACATGACAATCGAAGATTAT: 83 a.u.
CTTCTGTAAATTTGAGGAGTGGGTGGACGCGCCCCG: 94.8 a.u.
TCGCGTTTCTCCAGCCACGTGCTTTTAACCTAAATA: 2000 a.u.
TGCGCAACAACTTGTATGGTGGGTGTATGTCTAGAA: 66.9 a.u.
CAAGTGTTGTTGGTGCTCGTGGTAATGCAGCGACTT: 96.1 a.u.
AAATTACTAAGTTTTCACGTGCTGTACCCCGTATGA: 945 a.u.
AGGCAGAAACACTGACTCGTGGGTACGTCCACCCAG: 59.6 a.u.
TCCTTATCTATAGGACACGCTGTTATTTTAGTTCAA: 107 a.u.
TCCAGCAGAACCAGCCATGTGCGAAGAAAAACAATT: 108 a.u.
CGGGGTTAAGTTTGACAAGTGGGTGGCTTGCAGCAG: 65 a.u.
GACTCATTTCTTAGTGACGTTGGTGACAGGAATATG: 98.3 a.u.
TACACTTCGTATTTGCACGATATGTTTCCCTTTTAA: 79.4 a.u.
CGTCCTAGTGATTGTCTCGTGGGTGCCATGAGGAAG: 137 a.u.
CTTCTGTAAATTTGCTTCGTGGGTGGACGCGCCCCG: 85 a.u.

Sample 2 — method: RNA Bind-n-Seq; molecule type: RNA; matrix: in vitro; tested at: 200 nM; notes: whole 134-nt RNA, ends assumed; added: 150 mM KCl; reference: input library; reading: higher = stronger binding; measurement: log2 enrichment
Target: Fragile X messenger ribonucleoprotein 1, C-terminal low-complexity region (Fmr1, Mus musculus, UniProt P35922)
Constant ends, left off below: GGGAGUUCUACAGUCCGACGAUC … UGGAAUUCUCGGGUGUCAAGG
UGCGAUAUGAACGUUCACAAGCAAUGCGUCAUCAAUGUCCCCAGCCUCUGCGGAAUGGAUCACACUGAGAAGAGGGGGCGGAUUUACCUA: -1.15
AAGUCCUGUGCUACACAUCGUAUGUACCGAAUCAAACCCAAACCCCCAAAUUUAAAAAAGUAUUAUGUUACGCCGUUCGGAUCUGCACUU: -0.21
UAACUUUAGAGGAGGAUCUGUUGGAUAUGGCAGUGGACGUGGAUUUGGGGAUGGCUAUAAUGGGUAUGGAGGAGGACCUGGAGGUGGCAA: 0.33
GUCCUGUGCUACACAUCGUAUGUACCGAAUCGGGGUUUUUGGGUUUUUGGGUUUUUGGGAAAGUAUUAUGUUACGCCGUUCGGAUCUGCA: 0.327
UAUCUUAUCUACACAUGGGGGACUGAAGAGUUCGAGAGAUCCAAGAGGAAGAAUCCAGCUGCCUAUGAAAAUGACAAAUGAGCAACGCAU: -0.625
ACCAUGCAGGUCGGCAUCUUUGGGAAGUGGGGCAAGGGGGGGAUAGGGAGGGGGGUAACACUUUGGGAACAGGUGGUCCCAGGUCGUUUC: 1.07
AGUCCUGUGCUACACAUCGUAUGUACCGAAUCGGGAAAAAGGAAAAAGGGGAAAAAGGAAAGUAUUAUGUUACGCCGUUCGGAUCUGCAC: -0.5
UCCUGUGCUACACAUCGUAUGUACCGAAUCGGUUUUUUUGGAAAAAAAGGAAAAAAAGGAAAGUAUUAUGUUACGCCGUUCGGAUCUGCA: -0.648
UCCUGUGCUACACAUCGUAUGUACCGAAUCGGGGUUUGGGGUUUUUGGGGUUUUUGGGGAAAGUAUUAUGUUACGCCGUUCGGAUCUGCA: 0.956

Sample 3 — method: RNA Bind-n-Seq; molecule type: RNA; matrix: in vitro; tested at: not given; reference: input RNA pool; reading: higher = stronger binding; measurement: bound/input enrichment
Target: RING finger protein unkempt homolog, zinc fingers 1-6, GST-SBP tag (UNK, Homo sapiens, UniProt Q9C0B0, residues 30-357)
UniProt Q9C0B0, sequence (30-357, looked up): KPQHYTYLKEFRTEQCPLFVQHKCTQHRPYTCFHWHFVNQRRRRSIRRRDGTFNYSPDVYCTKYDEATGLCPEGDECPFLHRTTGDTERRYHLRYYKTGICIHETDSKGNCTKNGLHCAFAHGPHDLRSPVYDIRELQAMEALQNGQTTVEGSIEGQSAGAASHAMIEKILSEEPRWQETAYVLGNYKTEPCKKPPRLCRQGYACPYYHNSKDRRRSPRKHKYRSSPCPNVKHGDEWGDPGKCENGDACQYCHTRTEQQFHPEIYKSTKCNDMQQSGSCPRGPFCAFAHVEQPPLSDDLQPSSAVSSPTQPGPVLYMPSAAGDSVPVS
Notes: RNA with constant flanks, human-mouse chimeric sites, ends assumed
Constant ends, left off below: GGGAGUUCUACAGUCCGACGAUC … CAACAGAGGAUUGAGCAUCA
UCUUAACGUCCAUUUAACUUAUUUUUAUAUAGCUAGAUAAAUAUUGUUAGUCUUAGACAAUAGCUCACAUUUUUUGAGAAGCAUGCCCUCCCUGUCCAUUUGUCUUAUAACAUGACCCAG: 33.8 ratio
GAUCAUGAACCACCAUCAGAAAUGAAGGAUGAGACUACCAGACGAGCCAAAACAGCUGCGCUACAGAAAAGUAAACUUUAACCUUGCGAGUUCCUUAAUGAAGAUACAAGUUAAGAGAGC: 0.161 ratio
UAAGUCCUGUGCCAGCAAUUUAUCCCAAAAGUUUUAAAUUCAAGAAAAAUAGUGUUUGUUUCCUGAUUAUUGUAUCCAAUACUUUGCCUAGUAUGUAACUCACUCUUACUGAUAAUAAAA: 12.4 ratio
GACUUUGGGACUGGUCCUCGCAACGCAGCCUUCUAUAGCCCUCAUGGACAUAUAUUAGUGCUGGCUGGAUUUGGAAAUCUGAGGGGACAAAUGGAAGUAUGGGAUGUGAAAAACUACAAG: 0.457 ratio
CUCAGAGACGUGGCAUAUCAGUAUGUGAAAAAGGGGGCUCGUAUAUUUGUGGAAGGGAAAGUGGACUAUGGCGAGUACAUGGAUAAAAACAAUGUGAGGCGGCAAGCAACAACAAUCAUA: 0.315 ratio
AUGCAGUAUGAGACCAACAGCAUGGACUUCAAAGUCGGGGCAGAUGGGACAGUCUUCGCCACCCGGGAGCUGCAGGUCCCCUCCGAGCAGGUGGCGUUCACGGUGACUGCAUGGGACAGC: 0.134 ratio
GAGCCAAGCCGGCAGUUUGUAAAGGACUCAAUUCGGCUGGUUAAAAGAUGCACUAAACCCGACAGAAAAGAAUUCCAGAAGAUUGCCAUGGCUACAGCUAUAGGAUUUGCUAUCAUGGGA: 0.213 ratio
GUACUGCAACAGCAGGGAAAACUGCAGGAAGCUCUGAUGCAUUAUAAGGAGGCUAUUCGAAUCAGUCCUACCUUUGCUGAUGCUUAUUCUAAUAUGGGAAACACUCUAAAGGAGAUGCAG: 0.192 ratio

Sample 4 — method: RNA Bind-n-Seq; molecule type: RNA; matrix: in vitro; tested at: 365 nM; reference: no-protein control; reading: higher = stronger binding; measurement: RBNS enrichment (R)
Target: RNA binding protein fox-1 homolog 2, RRM domain, GST-SBP tag (RBFOX2, Homo sapiens, UniProt O43251-10, residues 100-194)
Notes: natural RNA segment, single round, ends assumed
Constant ends, left off below: GGGAGUUCUACAGUCCGACGAUC … UGGAAUUCUCGGGUGCCAA
Target sequence (chain): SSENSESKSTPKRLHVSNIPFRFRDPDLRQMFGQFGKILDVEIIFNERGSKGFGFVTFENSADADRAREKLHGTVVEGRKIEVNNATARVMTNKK
CCUGGAGAGAAGAACUGUGUCCUUUACUGUAUUUCAACAGGACUCUUUUGGGGGAUCAAAAUUAAAAUUCCUAAUUAUGCAUUAUCUUUCUUUUCUCCAGUCCUCACAAA: 0.795
AUUGUCCCCAAGCUCUGGAUUUUUUUCUCUCCAGGACCCAAGUUUUAGGCAGUGAGUAAUGCUUAUAAGCAAAUUACUGAAGGAUUUAAAAAUGGACAGCCAAUGUGUUC: 0.446
AUUUUUAAAUUAACUGUUUUGAGCUUUGAAUACUUAAGGCUUUAGAGGGAGAACCCAAUUUUCAAUUAUGUUGGCUUUUUAUAAAGCUUGAGUUAUGUAAGAUUUAAAUA: 1.28
CUAGGAAGGUCUUAAGCAUGUAAUGUCCCUUUAUCAGAGGGAAGGGGACAAACUCAGGGCAGCCCUGUCCAGGUAGAAAUAUUUUUGCCCCCCUGUCUGAUGUUGAUGAG: 2.67
UCCAGAGGCUUCACCACCUUGCACUGCUCUAUCUGGUUGGGGGUGGGCAGGAGAACCCCUCGCUUUCCCCACCAUGGGAGCAUUUGCUGGGAAGUGUCUUUUCAGGACUU: 0.231
ACCACUCACGGCCCAAAUCUUCUUGAUCAUAUGUUUAAAUAUAUUUUUUAAUAUUUGGAGCAUGAGUUGUCACUUCUUGUUUGCCUUUUUUAUAAGGAAAUGUUGGAGAG: 0.454
AAGGCUUAAGAGUGCCUGUUUCUGACAAUAAAAUGUUCCAAUAUUAAUGAACAGUGCCAAAUACACUGUGCAUAUCUAUAAUUUUCCAUUUGAAUGUAUGUUAAUUACUC: 0.968
AGCAUCCUAGAGCUCACUGAGCACUGCUGAGCUUUGACACGCCAGCCACACACAGCUUGCUGCUGUCGUUCUAGCCUUGCCAGUGCACUGUAGAUGCUGGCCUGUCACUC: 0.337

Repeated from above (sample 4):
ACCACUCACGGCCCAAAUCUUCUUGAUCAUAUGUUUAAAUAUAUUUUUUAAUAUUUGGAGCAUGAGUUGUCACUUCUUGUUUGCCUUUUUUAUAAGGAAAUGUUGGAGAG: 0.454
AUUGUCCCCAAGCUCUGGAUUUUUUUCUCUCCAGGACCCAAGUUUUAGGCAGUGAGUAAUGCUUAUAAGCAAAUUACUGAAGGAUUUAAAAAUGGACAGCCAAUGUGUUC: 0.446
AGCAUCCUAGAGCUCACUGAGCACUGCUGAGCUUUGACACGCCAGCCACACACAGCUUGCUGCUGUCGUUCUAGCCUUGCCAGUGCACUGUAGAUGCUGGCCUGUCACUC: 0.337
UCCAGAGGCUUCACCACCUUGCACUGCUCUAUCUGGUUGGGGGUGGGCAGGAGAACCCCUCGCUUUCCCCACCAUGGGAGCAUUUGCUGGGAAGUGUCUUUUCAGGACUU: 0.231
AAGGCUUAAGAGUGCCUGUUUCUGACAAUAAAAUGUUCCAAUAUUAAUGAACAGUGCCAAAUACACUGUGCAUAUCUAUAAUUUUCCAUUUGAAUGUAUGUUAAUUACUC: 0.968
CCUGGAGAGAAGAACUGUGUCCUUUACUGUAUUUCAACAGGACUCUUUUGGGGGAUCAAAAUUAAAAUUCCUAAUUAUGCAUUAUCUUUCUUUUCUCCAGUCCUCACAAA: 0.795
